Measured values from different studies.
Lines come from different studies, so protocols differ. Numbers after ± are the reported error.
Succinate dehydrogenase complex: Succinate dehydrogenase complex (Sus scrofa, UniProt A5GZW8+D0VWV4+Q007T0+Q0QF01)
Sequence of UniProt D0VWV4 (whole entry, looked up): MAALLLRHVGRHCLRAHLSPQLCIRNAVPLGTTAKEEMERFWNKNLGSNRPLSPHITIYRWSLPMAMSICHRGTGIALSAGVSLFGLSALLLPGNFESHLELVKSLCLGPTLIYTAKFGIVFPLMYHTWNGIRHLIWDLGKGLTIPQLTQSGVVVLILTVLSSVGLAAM
Sequence of UniProt Q0QF01 (whole entry, looked up): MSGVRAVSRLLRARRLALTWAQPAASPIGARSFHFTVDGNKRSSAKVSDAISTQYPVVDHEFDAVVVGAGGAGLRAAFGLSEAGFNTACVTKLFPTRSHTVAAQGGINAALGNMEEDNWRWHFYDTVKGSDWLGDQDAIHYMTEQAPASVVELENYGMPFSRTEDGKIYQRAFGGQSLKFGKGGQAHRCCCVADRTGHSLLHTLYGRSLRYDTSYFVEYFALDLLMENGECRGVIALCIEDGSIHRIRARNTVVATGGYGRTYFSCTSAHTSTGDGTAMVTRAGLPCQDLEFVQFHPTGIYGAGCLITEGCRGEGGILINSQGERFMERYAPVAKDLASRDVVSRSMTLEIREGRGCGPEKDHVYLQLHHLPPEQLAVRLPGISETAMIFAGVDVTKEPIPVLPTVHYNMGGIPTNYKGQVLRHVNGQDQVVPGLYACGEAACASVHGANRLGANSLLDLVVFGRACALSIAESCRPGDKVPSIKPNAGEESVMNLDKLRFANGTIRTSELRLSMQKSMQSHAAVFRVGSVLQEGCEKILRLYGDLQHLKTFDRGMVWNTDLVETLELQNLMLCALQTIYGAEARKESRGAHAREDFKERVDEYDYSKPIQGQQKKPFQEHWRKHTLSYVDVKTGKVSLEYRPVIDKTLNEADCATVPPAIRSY
Sequence of UniProt Q007T0 (whole entry, looked up): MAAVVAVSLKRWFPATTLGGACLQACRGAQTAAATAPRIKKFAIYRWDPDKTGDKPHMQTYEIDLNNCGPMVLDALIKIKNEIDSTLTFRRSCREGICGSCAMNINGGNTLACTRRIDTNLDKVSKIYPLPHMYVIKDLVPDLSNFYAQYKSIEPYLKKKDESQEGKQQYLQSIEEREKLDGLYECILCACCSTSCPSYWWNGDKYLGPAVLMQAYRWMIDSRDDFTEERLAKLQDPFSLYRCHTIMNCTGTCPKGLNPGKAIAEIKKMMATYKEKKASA
Sequence of UniProt A5GZW8 (whole entry, looked up): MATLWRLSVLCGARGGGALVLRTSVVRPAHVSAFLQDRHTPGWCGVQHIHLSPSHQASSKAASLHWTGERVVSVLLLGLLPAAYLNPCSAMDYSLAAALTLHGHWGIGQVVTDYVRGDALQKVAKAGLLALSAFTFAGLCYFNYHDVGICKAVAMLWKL
GLO1: Lactoylglutathione lyase (GLO1, Homo sapiens, UniProt Q04760)
Sequence of UniProt Q04760 (whole entry, looked up): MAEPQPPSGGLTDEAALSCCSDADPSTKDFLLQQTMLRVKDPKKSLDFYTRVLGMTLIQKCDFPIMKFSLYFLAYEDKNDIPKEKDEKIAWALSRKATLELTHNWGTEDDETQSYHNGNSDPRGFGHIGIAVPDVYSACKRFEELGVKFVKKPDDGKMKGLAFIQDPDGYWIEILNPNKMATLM
MTOR: Serine/threonine-protein kinase mTOR (MTOR, Homo sapiens, UniProt P42345)
GSTO1: Glutathione S-transferase omega-1 (GSTO1, Homo sapiens, UniProt P78417)
Sequence of UniProt P78417 (whole entry, looked up): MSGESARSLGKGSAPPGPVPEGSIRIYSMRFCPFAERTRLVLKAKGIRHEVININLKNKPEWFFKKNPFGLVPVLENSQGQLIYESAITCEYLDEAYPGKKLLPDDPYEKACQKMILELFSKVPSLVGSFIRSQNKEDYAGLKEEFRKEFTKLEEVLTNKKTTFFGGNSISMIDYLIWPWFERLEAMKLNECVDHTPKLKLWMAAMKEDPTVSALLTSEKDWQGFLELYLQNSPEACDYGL
MAOA: Amine oxidase [flavin-containing] A (MAOA, Homo sapiens, UniProt P21397)
Sequence of UniProt P21397 (whole entry, looked up): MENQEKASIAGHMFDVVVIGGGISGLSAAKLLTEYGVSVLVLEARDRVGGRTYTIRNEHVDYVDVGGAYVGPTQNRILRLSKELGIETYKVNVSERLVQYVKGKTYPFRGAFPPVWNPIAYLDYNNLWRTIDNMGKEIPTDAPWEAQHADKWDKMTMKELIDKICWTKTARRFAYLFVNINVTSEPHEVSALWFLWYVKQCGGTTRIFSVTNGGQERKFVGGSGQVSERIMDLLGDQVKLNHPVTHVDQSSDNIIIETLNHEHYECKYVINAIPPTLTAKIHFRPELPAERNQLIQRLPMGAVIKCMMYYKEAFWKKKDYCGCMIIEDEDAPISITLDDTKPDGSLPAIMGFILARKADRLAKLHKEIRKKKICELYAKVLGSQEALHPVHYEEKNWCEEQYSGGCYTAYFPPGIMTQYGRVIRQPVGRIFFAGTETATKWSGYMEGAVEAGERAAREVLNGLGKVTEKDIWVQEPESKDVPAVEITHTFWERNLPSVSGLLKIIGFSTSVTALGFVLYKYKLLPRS
AGER: Advanced glycosylation end product-specific receptor (AGER, Homo sapiens, UniProt Q15109)
Sequence of UniProt Q15109 (whole entry, looked up): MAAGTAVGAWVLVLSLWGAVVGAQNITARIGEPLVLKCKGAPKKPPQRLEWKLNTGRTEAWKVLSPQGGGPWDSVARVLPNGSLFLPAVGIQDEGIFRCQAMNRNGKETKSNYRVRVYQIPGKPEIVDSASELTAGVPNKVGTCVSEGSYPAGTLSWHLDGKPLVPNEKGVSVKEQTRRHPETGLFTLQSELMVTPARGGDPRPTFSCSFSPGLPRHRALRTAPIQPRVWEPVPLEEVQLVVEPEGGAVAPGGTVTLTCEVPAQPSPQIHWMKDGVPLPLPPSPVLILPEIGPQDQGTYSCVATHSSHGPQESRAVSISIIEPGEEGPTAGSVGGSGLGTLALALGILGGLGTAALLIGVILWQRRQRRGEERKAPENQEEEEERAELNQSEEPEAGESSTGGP
FLT3 ITD: Receptor-type tyrosine-protein kinase FLT3 (FLT3, Homo sapiens, UniProt P36888, ITD)
lecA: PA-I galactophilic lectin (lecA, Pseudomonas aeruginosa, UniProt Q05097)
Sequence of UniProt Q05097 (whole entry, looked up): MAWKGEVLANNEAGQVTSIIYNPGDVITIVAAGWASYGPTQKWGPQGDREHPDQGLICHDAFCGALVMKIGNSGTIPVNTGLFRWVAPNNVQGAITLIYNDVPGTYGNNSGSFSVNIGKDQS
Sequence of UniProt Q02750 (whole entry, looked up): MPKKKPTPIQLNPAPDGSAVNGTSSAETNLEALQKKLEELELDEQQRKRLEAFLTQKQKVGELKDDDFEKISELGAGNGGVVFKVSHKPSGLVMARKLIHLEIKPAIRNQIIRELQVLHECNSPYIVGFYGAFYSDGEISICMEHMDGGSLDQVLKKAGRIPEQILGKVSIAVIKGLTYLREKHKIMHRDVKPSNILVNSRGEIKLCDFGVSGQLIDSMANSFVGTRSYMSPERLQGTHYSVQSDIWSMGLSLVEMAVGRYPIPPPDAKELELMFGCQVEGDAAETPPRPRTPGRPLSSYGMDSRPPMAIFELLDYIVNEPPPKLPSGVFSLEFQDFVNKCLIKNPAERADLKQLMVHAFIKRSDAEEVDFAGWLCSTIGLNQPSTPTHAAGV
Sequence of UniProt Q9Y3R4 (whole entry, looked up): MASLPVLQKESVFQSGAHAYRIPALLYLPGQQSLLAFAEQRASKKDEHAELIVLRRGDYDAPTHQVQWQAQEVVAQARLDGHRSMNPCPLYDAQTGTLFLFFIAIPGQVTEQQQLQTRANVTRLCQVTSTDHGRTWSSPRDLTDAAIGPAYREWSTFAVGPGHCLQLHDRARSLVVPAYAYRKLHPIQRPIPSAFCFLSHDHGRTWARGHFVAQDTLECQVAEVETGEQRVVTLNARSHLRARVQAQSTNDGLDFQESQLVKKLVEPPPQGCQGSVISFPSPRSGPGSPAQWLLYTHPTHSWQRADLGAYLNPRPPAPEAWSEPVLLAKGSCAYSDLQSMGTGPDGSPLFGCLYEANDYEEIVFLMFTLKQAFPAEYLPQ
Sequence of UniProt Q99873 (whole entry, looked up): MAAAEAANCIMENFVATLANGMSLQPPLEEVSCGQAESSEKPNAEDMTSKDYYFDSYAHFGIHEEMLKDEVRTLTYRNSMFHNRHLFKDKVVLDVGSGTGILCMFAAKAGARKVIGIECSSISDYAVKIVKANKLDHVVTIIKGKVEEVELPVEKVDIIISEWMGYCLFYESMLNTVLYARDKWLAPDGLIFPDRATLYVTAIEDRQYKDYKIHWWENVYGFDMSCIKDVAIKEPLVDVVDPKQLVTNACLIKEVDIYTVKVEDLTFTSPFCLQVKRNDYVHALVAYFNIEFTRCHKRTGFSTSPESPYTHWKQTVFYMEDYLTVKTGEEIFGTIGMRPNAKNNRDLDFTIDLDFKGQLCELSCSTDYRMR

For `O=C(Nc1ccccc1Nc1ccccc1)c1cccnc1F`, the inhibition was 10.7% (Succinate dehydrogenase complex; enzyme activity, double-antibody sandwich ELISA; 8 µM).
`Clc1ccc2ccc3[n+](c2c1)[Ir-3]12([c]4ccccc4-3)([c]3ccccc3-c3ccc4ccc(Cl)cc4[n+]31)[n+]1ccccc1-c1cccc[n+]12.F[P-](F)(F)(F)(F)F` has an inhibition of 55.9% (Cyclin-dependent kinase 9, with cyclin T1 (CDK9, Homo sapiens, UniProt P50750); kinase activity; 10 nM).
`O=C(Nc1ccccc1Nc1ccccc1)c1cccnc1C(F)(F)F` gave an inhibition of 33.6% (Succinate dehydrogenase complex; enzyme activity, double-antibody sandwich ELISA; 2 µM).
`COc1ccc(S(=O)(=O)Nc2ccc(NS(=O)(=O)c3ccc(OC)cc3)c3ccccc23)cc1` has an inhibition of 97% (Kelch-like ECH-associated protein 1, Kelch domain (KEAP1, Homo sapiens, UniProt Q14145); Keap1-Nrf2 interaction, inhibitor, fluorescence polarisation; 50 µM).
For `NS(=O)(=O)c1ccc(/N=N/c2cc3ccc(=O)oc3cc2O)cc1`, the inhibition was 44.4% (GLO1; enzyme activity, inhibitor; 25 µM).
For `N#Cc1c(N)nc(N)nc1OCC1CCCCC1`, the inhibition was under 5% (MTOR; enzyme activity, inhibitor, TR-FRET; 20 µM).
`O=C(NC1CCCCC1)C(c1cncs1)N(C(=O)CCl)c1ccc(F)cc1` (racemic) has an inhibition of 50% (GSTO1; probe labelling, gel-based competitive ABPP; MDA-MB-435 soluble proteome; 100 nM, together with: SE-Rh probe).
The inhibition of `Cc1ccc(-c2nc(SCc3cn(CC(=O)NC(=O)Nc4ccccn4)nn3)nc(Nc3cccc(C(F)(F)F)c3)c2C#N)cc1` is reported as under 5% (MAOA; enzyme activity, inhibitor, luciferase; 100 µM).
For `COc1ncccc1C(=O)Nc1ccccc1Nc1ccccc1`, the inhibition was 33% (Succinate dehydrogenase complex; enzyme activity, double-antibody sandwich ELISA; 1 µM).
The inhibition of `COc1cc(N(C(=O)c2cc3ccc(Cl)cc3s2)c2cc(OC)c(OC)c(OC)c2)cc(OC)c1OC` is reported as 0% (AGER; binding to AGE-BSA, competitive ELISA; 100 µM, 60 min).
The inhibition of `O=C(CCl)N(CCNC(=O)C(F)(F)F)c1ccc([N+](=O)[O-])cc1` is reported as 100% (GSTO1; probe labelling, gel-based competitive ABPP; MDA-MB-435 soluble proteome; 1000 nM, together with: SE-Rh probe).
With `O=C(Nc1ccccc1Nc1ccccc1)c1cccnc1Br` the inhibition was 38.1% (Succinate dehydrogenase complex; enzyme activity, double-antibody sandwich ELISA; 8 µM).
`COc1ccc(NC(=O)c2cc3ccc(Cl)cc3s2)c(OC)c1` has an inhibition of 99% (AGER; binding to AGE-BSA, competitive ELISA; 100 µM, 60 min).
The inhibition of `CC[C@H](C)[C@H](NC(=O)[C@H](CCCNC(=N)N)NC(=O)[C@H](CCCCN)NC(=O)[C@@H]1CCCN1C(=O)[C@@H]1CCCN1CCCN(CC[C@H](N)C(=O)O)C[C@H]1O[C@@H](n2cnc3c(N)ncnc32)[C@H](O)[C@@H]1O)C(=O)N[C@@H](C)C(N)=O` is reported as under 40% (PRMT1 (Homo sapiens, UniProt Q99873); enzyme activity, inhibitor; 33 µM).
`C#CCSc1nc(Sc2nnnn2-c2ccccc2)c2nnn(Cc3ccccc3Cl)c2n1` gave an inhibition of about 40% (MAOA; enzyme activity, inhibitor, luciferase; 10 µM).
With `Cc1n[nH]c(C)c1-c1nc2ccc3[nH]ncc3c2c2c1CCCC2` the inhibition was 54% (FLT3 ITD; enzyme activity, inhibitor, ADP detection; 0.1 µM).
With `O=C(NC1CCCCC1)C(c1ccccn1)N(C(=O)CCl)c1ccc(F)c(F)c1` (racemic) the inhibition was 100% (GSTO1; probe labelling, gel-based competitive ABPP; MDA-MB-435 soluble proteome; 100 nM, together with: SE-Rh probe).
With `O=C(O[C@@H]1Cc2c(O)cc(O)cc2O[C@@H]1c1cc(O)c(O)c(O)c1)c1cc(O)c(O)c(O)c1` the inhibition was 98.7% (maltase, rat; enzyme activity, inhibitor; rat intestinal brush border vesicles; 10 µM).
The inhibition of `O=C(CCl)N(CCNC(=O)C(F)(F)F)c1cccc([N+](=O)[O-])c1` is reported as 35% (GSTO1; probe labelling, gel-based competitive ABPP; MDA-MB-435 soluble proteome; 100 nM, together with: SE-Rh probe).
The inhibition of `NS(=O)(=O)c1ccc(/N=N/c2cc3ccccc3c(C(=O)O)c2O)cc1` is reported as 44.4% (GLO1; enzyme activity, inhibitor; 25 µM).
`COc1cc(NC(=O)c2cc3ccc(Cl)cc3s2)cc(OC)c1OC` gave an inhibition of 0% (AGER; binding to AGE-BSA, competitive ELISA; 100 µM, 60 min).
The inhibition of `CC(C)C[C@H](NC(=O)CNC(=O)c1cc(Cl)ccc1Cl)B(O)O` is reported as 93.3% (Proteasome subunit beta type-5 (Babesia divergens, UniProt A0AAD9GDK3); proteasome activity; Babesia divergens, parasite lysate; 1 µM, together with: Suc-LLVY-AMC substrate).
The inhibition of `O=C(c1ccc(O)c(O)c1)c1ccc(O)cc1O` is reported as 13% (lecA; ligand displacement, FP; 4 mM).
With `O=C(Nc1ccccc1Nc1ccccc1)c1nccnc1Cl` the inhibition was 14.4% (Succinate dehydrogenase complex; enzyme activity, double-antibody sandwich ELISA; 1 µM).
`O=C(O[C@@H]1Cc2c(O)cc(O)cc2O[C@@H]1c1ccc(O)cc1)c1cc(O)c(O)c(O)c1` gave an inhibition of 91.4% (maltase, rat; enzyme activity, inhibitor; rat intestinal brush border vesicles; 10 µM).
`CC(=O)N[C@H]1NC[C@H](C(=O)O)[C@H](O)[C@@H]1O` gave an inhibition of 64% (Sialidase-2 (Homo sapiens, UniProt Q9Y3R4); enzyme activity, inhibitor; 600 µM, pH 4).
The inhibition of `NC(CNC(CNC(CC(=O)O)C(=O)O)C(=O)O)C(=O)O` (stereo not drawn) is reported as about 70% (IMP-7 metallo-beta-lactamase; 0.5 mM, Zn-depleted buffer, extended incubation).
For `C#Cc1cccc(N(C(=O)CCl)C(C(=O)NC2CCCCC2)c2ccccn2)c1` (racemic), the inhibition was at least 98% (GSTO1; probe labelling, gel-based competitive ABPP; MDA-MB-435 soluble proteome; 100 nM, together with: SE-Rh probe).
The inhibition of `CC(C)C[C@H](NC(=O)[C@H](CCC(N)=O)NC(=O)[C@H](CCCNC(=N)N)NC(=O)[C@H](CCCNC(=N)N)NC(=O)[C@@H](NC(=O)[C@H](CCCNC(=N)N)NC(=O)[C@@H](NC(=O)[C@H](CO)NC(=O)[C@@H](N)CS)[C@@H](C)O)C(C)C)C(N)=O` is reported as 92.5 ± 1.8% (xanthine oxidase; superoxide radical signal, EPR; 10 µM, 10 min, together with: xanthine).
With `COC(=O)CCSc1nc2n(n1)C(c1cccc(OC)c1)C(C(=O)Nc1cncc(C)c1)=C(C)N2` (stereo not drawn) the inhibition was 54.7% (MTOR; enzyme activity, inhibitor, TR-FRET; 10 nM).
With `CC[C@H](C)[C@H](NC(=O)[C@@H](Cc1ccccc1)NC(=O)[C@@H](N)C(C)C)C(=O)N[C@@H](C)C(N)=O` the inhibition was 62.5% (APP (Homo sapiens, UniProt P05067); amyloid aggregation, inhibitor, fluorescence; 10 µM, 24 h).
`O=C(Nc1cc(Cl)ccc1O)c1nn2c(C(F)(F)F)cc(-c3cc(Br)cs3)nc2c1Br`: inhibition “inhibited” (Hepatitis A virus cellular receptor 2, part CEACAM1 interaction (Homo sapiens, UniProt Q8TDQ0); CEACAM1 binding, competitive ELISA; 2.5 µM).
For `Oc1ccc(CCC(O)CC(O)CCc2ccc(O)cc2)cc1` (stereo not drawn), the inhibition was 57.2 ± 3.6% (Maob (Rattus norvegicus, UniProt P19643); enzyme activity, inhibitor; 50 µg/mL).
The inhibition of `CC(C)(C)c1n[nH]cc1-c1nc2ccc3[nH]ncc3c2c2c1CCCC2` is reported as 20% (FLT3 ITD; enzyme activity, inhibitor, ADP detection; 0.1 µM).
The inhibition of `Nc1cccc2ccc(O)c(/N=N/c3ccc(S(N)(=O)=O)cc3)c12` is reported as 57.3% (GLO1; enzyme activity, inhibitor; 25 µM).
`COc1cc(C(=O)NC2CCC(N3CCN(CC4CCC5(CCCC5)C4)CC3)CC2)c(F)cc1Nc1ncc2c(n1)N(C1CCCC1(F)F)CC(F)(F)C(=O)N2C` (stereo not drawn) has an inhibition of 3.51% (LTK (Homo sapiens, UniProt P29376); cell-free assay, TR-FRET; 10 µM).
The inhibition of `Nc1nc(Nc2ccccc2)sc1C(=O)c1ccccc1` is reported as over 90% (MAP2K1 (Homo sapiens, UniProt Q02750); enzyme activity, inhibitor; 10 µM).
`O=C(Nc1ccccc1)c1cc2ccc(Cl)cc2s1` has an inhibition of 0% (AGER; binding to AGE-BSA, competitive ELISA; 100 µM, 60 min).
`CC(C)COC(=O)c1cc(O)c(O)c(O)c1` has an inhibition of 8% (lecA; ligand displacement, FP; 4 mM).
The inhibition of `Cc1cc(-c2c[nH]nc2C(F)(F)F)nc2ccc3[nH]ncc3c12` is reported as 22% (FLT3 ITD; enzyme activity, inhibitor, ADP detection; 0.1 µM).
With `O=C(NC1CCCCC1)C(c1cccnc1)N(C(=O)CCl)c1ccc(F)cc1` (racemic) the inhibition was 75% (GSTO1; probe labelling, gel-based competitive ABPP; MDA-MB-435 soluble proteome; 100 nM, together with: SE-Rh probe).
`COc1ccc(NC(=O)c2cc3ccc(N(C)C)cc3s2)cc1` gave an inhibition of 59% (AGER; binding to AGE-BSA, competitive ELISA; 100 µM, 60 min).
With `O=C(O[C@H]1Cc2c(O)cc(O)cc2O[C@@H]1c1ccc(O)c(O)c1)c1cc(O)c(O)c(O)c1` the inhibition was 89.7% (maltase, rat; enzyme activity, inhibitor; rat intestinal brush border vesicles; 10 µM).
`O=C(c1cc2ccc(Cl)cc2s1)N(c1ccc(F)cc1)c1ccc(F)cc1` gave an inhibition of 0% (AGER; binding to AGE-BSA, competitive ELISA; 100 µM, 60 min).
For `O=C1CSC(c2cccc(Br)c2)N1c1cc(Cl)ccc1O` (stereo not drawn), inhibition read “inhibited” (ACTR2/ACTR3 (Bos taurus, UniProt A7MB62+P61157); actin polymerization rate, pyrenyl-actin; concentration not given).

Some of these lines once more:
`COc1cc(NC(=O)c2cc3ccc(Cl)cc3s2)cc(OC)c1OC` gave an inhibition of 0% (AGER; binding to AGE-BSA, competitive ELISA; 100 µM, 60 min).
`COc1ccc(NC(=O)c2cc3ccc(Cl)cc3s2)c(OC)c1` has an inhibition of 99% (AGER; binding to AGE-BSA, competitive ELISA; 100 µM, 60 min).
`COc1ccc(S(=O)(=O)Nc2ccc(NS(=O)(=O)c3ccc(OC)cc3)c3ccccc23)cc1` has an inhibition of 97% (Kelch-like ECH-associated protein 1, Kelch domain (KEAP1, Homo sapiens, UniProt Q14145); Keap1-Nrf2 interaction, inhibitor, fluorescence polarisation; 50 µM).
The inhibition of `NS(=O)(=O)c1ccc(/N=N/c2cc3ccccc3c(C(=O)O)c2O)cc1` is reported as 44.4% (GLO1; enzyme activity, inhibitor; 25 µM).
